Measurements gathered from unrelated publications.
Each numbered part is a random draw from the data of one study; scales do not carry over between parts.
Sequence of UniProt Q16659 (whole entry, looked up): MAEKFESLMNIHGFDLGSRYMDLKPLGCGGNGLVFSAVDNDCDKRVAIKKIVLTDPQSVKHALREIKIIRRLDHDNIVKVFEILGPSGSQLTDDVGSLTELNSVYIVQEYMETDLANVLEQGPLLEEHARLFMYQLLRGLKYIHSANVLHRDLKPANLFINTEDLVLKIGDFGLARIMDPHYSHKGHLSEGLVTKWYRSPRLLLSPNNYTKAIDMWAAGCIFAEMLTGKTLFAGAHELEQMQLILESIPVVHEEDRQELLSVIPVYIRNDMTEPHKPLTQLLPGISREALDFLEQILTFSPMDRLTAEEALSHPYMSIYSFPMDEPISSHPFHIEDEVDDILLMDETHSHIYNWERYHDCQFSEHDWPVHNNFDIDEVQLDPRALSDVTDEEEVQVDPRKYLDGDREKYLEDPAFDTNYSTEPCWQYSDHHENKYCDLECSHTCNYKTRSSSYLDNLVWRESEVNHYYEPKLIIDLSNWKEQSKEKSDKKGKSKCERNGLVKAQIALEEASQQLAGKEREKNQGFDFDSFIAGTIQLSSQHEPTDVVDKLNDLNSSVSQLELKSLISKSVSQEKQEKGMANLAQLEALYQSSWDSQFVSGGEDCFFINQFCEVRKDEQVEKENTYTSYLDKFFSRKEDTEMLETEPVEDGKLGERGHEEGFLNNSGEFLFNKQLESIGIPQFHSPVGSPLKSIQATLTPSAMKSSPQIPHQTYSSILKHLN
Sequence of UniProt O15075 (whole entry, looked up): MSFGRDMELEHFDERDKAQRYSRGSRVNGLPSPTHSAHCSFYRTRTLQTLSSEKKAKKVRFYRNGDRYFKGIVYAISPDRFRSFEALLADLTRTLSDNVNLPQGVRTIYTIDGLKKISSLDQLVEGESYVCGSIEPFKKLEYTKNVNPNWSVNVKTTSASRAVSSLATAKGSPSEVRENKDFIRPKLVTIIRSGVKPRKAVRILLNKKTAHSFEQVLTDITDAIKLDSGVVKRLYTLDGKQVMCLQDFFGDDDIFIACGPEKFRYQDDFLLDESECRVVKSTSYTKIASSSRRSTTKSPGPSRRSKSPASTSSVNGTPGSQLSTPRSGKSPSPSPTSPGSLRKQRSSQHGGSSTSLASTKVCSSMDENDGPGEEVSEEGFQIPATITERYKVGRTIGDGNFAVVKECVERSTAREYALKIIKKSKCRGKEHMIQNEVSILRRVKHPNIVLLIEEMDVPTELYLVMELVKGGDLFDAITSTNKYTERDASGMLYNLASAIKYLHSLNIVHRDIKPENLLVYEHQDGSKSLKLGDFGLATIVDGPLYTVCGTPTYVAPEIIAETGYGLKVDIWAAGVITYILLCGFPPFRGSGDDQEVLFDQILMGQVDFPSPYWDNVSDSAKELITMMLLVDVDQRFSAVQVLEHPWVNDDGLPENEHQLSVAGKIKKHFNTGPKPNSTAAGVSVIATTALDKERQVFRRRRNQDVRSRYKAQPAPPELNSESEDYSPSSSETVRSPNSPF
Sequence of UniProt Q08345 (whole entry, looked up): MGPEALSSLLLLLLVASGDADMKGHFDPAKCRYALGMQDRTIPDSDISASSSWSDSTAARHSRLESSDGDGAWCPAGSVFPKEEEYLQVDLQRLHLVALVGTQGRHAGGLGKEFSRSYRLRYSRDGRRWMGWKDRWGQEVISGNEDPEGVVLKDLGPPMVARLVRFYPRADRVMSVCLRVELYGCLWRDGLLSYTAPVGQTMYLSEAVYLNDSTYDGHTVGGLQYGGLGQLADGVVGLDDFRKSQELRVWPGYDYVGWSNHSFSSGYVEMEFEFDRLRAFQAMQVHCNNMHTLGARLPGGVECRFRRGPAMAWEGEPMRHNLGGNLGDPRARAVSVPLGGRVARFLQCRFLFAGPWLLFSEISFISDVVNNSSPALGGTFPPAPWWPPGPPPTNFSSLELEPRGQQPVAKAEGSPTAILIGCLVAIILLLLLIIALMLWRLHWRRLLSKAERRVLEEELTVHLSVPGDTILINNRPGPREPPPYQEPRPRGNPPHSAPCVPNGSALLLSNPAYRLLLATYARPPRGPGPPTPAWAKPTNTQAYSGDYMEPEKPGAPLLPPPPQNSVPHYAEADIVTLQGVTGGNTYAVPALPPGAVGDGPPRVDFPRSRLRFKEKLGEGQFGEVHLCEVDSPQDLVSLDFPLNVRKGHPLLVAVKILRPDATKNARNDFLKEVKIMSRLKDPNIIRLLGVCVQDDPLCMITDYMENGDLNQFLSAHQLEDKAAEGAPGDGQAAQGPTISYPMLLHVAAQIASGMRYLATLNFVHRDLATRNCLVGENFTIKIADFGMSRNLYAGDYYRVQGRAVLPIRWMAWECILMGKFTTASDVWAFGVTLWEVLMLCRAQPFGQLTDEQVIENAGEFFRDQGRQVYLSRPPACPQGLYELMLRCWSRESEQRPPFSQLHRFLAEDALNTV
Sequence of UniProt P37173 (whole entry, looked up): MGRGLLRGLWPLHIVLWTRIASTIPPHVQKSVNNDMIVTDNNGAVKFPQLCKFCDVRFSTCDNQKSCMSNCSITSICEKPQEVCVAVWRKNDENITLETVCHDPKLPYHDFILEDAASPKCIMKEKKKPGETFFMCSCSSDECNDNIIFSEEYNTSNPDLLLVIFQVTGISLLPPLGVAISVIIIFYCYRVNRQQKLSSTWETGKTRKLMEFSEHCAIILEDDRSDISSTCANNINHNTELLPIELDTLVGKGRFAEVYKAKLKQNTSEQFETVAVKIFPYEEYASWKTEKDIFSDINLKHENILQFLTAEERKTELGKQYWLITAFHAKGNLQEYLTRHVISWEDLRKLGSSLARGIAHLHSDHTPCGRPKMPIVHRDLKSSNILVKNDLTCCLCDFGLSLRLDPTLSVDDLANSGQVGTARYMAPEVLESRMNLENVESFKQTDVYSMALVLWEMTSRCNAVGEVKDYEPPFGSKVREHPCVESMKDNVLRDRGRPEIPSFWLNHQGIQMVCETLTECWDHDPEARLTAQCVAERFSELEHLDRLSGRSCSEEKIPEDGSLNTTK
Sequence of UniProt Q13470 (whole entry, looked up): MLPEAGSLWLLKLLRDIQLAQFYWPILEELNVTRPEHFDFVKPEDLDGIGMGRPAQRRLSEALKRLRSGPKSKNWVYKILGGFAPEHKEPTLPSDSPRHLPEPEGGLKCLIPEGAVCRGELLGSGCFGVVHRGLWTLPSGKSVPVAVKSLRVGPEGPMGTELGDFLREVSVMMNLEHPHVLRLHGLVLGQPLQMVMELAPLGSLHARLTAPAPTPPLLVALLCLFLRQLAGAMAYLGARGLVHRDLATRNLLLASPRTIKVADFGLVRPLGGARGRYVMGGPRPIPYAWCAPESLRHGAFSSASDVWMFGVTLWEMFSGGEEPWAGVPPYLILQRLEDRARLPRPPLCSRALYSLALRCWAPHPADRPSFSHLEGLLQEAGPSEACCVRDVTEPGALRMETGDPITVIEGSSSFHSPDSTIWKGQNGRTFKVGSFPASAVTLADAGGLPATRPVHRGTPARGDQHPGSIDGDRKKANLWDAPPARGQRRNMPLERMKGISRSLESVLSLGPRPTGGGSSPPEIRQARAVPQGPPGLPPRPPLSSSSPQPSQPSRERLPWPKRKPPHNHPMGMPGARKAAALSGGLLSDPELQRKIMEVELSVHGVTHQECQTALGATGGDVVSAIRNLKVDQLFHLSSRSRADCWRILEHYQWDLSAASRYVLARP
Sequence of UniProt Q8TDX7 (whole entry, looked up): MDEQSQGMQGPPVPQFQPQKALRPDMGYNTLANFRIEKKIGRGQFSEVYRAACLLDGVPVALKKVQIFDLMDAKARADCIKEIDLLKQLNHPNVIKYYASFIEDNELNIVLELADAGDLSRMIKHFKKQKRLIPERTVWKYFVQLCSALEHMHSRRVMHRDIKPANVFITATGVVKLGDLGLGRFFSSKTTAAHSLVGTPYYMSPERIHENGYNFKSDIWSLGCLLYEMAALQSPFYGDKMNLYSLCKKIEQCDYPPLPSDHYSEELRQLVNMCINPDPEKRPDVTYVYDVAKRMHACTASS

Study 1
SMILES: COc1cc(C(=O)N2CCC(N3CCN(C)CC3)CC2)ccc1Nc1ncc2c(n1)N(C)c1ccccc1C(=O)N2C
Technique: KINOMEscan
Tested at: 10 µM
Relative to: DMSO control
Direction: lower = stronger binding
For BMPR1B: binding read 76%.
The binding was 99% (PRKX).
It gave 100% for binding (PIK3C2B).
It gave 100% for binding (RIOK2).
It gave 95% for binding (PAK1).
The binding was 100% (ACVRL1).
The binding was 90% (CSK).

Study 2
Target: Dual specificity protein kinase TTK (TTK, Homo sapiens, UniProt P33981)
Sequence of UniProt P33981 (whole entry, looked up): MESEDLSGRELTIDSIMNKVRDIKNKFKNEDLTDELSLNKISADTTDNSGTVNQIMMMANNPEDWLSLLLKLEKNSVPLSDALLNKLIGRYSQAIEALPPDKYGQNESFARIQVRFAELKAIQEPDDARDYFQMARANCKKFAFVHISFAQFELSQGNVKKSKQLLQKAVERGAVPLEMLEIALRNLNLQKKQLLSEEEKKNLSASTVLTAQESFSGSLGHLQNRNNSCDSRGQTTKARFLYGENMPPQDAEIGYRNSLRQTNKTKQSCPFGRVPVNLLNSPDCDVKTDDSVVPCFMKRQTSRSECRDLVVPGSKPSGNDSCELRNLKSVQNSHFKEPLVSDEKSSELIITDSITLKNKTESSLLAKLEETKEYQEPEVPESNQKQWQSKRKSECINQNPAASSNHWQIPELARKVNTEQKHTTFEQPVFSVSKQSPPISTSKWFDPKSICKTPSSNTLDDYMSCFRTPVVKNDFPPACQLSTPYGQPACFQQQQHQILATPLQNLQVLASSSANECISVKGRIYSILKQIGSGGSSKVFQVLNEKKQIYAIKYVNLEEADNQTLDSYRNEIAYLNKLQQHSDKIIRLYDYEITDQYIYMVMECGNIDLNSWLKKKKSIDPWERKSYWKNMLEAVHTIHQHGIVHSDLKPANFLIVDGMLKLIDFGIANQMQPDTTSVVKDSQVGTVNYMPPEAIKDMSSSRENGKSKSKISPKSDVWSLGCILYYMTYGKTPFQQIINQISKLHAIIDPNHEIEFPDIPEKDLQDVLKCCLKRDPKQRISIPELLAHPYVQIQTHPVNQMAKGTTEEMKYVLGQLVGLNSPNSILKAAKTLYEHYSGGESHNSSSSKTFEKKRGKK
Effect on: enzyme activity
Action: inhibitor
Tested at: 0.5 µM
Relative to: control
`CCN1/C(=C/C(C)=O)Sc2ccc(OC)cc21` has a remaining activity of 88.7%.
With `Cc1nc(Nc2ncc(C(=O)Nc3c(C)cccc3Cl)s2)cc(N2CCN(CCO)CC2)n1` the remaining activity was 105%.
`C[S+]([O-])c1ccc(-c2nc(-c3ccncc3)c(-c3ccc(F)cc3)[nH]2)cc1` (centres unmarked) gave a remaining activity of 99.9%.
`O=C1NC(=O)/C(=C/c2ccc3nccnc3c2)S1` gave a remaining activity of 102%.
`Cn1cc(/C=C2\C(=O)Nc3ccc(S(N)(=O)=O)cc32)c2ccccc21` gave a remaining activity of 97.3%.
For `CC(=O)O/N=C1/C(c2c(O)[nH]c3cc(Br)ccc23)=Nc2ccccc21`, the remaining activity was 93.9%.
With `CCOc1cc2ncnc(Nc3cccc(Br)c3)c2cc1OCC` the remaining activity was 91.2%.
`CS(=O)(=O)CCNCc1ccc(-c2ccc3ncnc(Nc4ccc(OCc5cccc(F)c5)c(Cl)c4)c3c2)o1` gave a remaining activity of 102%.
`COc1cc2ncc(-c3ccccc3)nc2cc1OC` gave a remaining activity of 125%.
With `CC(C)c1nn(-c2c(Cl)cccc2Cl)c2nc(Cc3ccc(OCCO)cc3)[nH]c(=O)c12` the remaining activity was 101%.
With `Cn1cnc2cc3c(Nc4cccc(Br)c4)ncnc3cc21` the remaining activity was 95.7%.
The remaining activity of `COc1ccc(Cl)cc1NC(=O)Nc1cc(C)nc2ccccc12` is reported as 103%.
The remaining activity of `O=c1cc(N2CCOCC2)oc2c1ccc1ccccc12` is reported as 103%.
For `COc1cc2ncnc(N3CCN(C(=O)Nc4ccc(Oc5ccccc5)cc4)CC3)c2cc1OC`, the remaining activity was 98.3%.
For `COc1cc2ncnc(Nc3ccc(OCc4ccccc4)cc3)c2cc1OC`, the remaining activity was 96.8%.

Study 3
Cell line: A-375
Tested at: 100 µM
Time: 36 h
`CC(CCc1ccccc1)NCC(O)c1ccc(O)c(C(N)=O)c1` (centres unmarked) gave a viability of 103%.
With `C/C=C(/C(=C/C)c1ccc(O)cc1)c1ccc(O)cc1` the viability was -2.17%.
The viability of `C[N+](C)(C)CCOC(N)=O` is reported as 112%.
For `COc1cccc2c1C(=O)c1c(O)c3c(c(O)c1C2=O)C[C@@](O)(C(C)=O)C[C@@H]3O[C@H]1C[C@H](N)[C@H](O)[C@H](C)O1`, the viability was 15.2%.
`NC(=O)N1c2ccccc2C=Cc2ccccc21` has a viability of 83%.
`CC[C@@H](CO)NCCN[C@@H](CC)CO` has a viability of 95.8%.
With `O=C(O)[C@H]1O[C@H](O)[C@H](O)[C@@H](O)[C@@H]1O` the viability was 105%.
`CN1CCc2c(c3ccccc3n2Cc2ccccc2)C1` gave a viability of 117%.
For `CN(C)CCc1c[nH]c2ccc(C[C@H]3COC(=O)N3)cc12`, the viability was 110%.
The viability of `CN(C)[C@@H](CCOc1cccc2ccccc12)c1ccccc1` is reported as -2.6%.
The viability of `Cc1c(OCC(F)(F)F)ccnc1C[S+]([O-])c1nc2ccccc2[nH]1` (centres unmarked) is reported as 73.6%.
For `Cn1cnc2c1c(=O)[nH]c(=O)n2C`, the viability was 99.3%.
`CC(C)NCC(O)COc1cccc2[nH]ccc12` (centres unmarked) has a viability of 103%.
`CO[C@H]1/C=C/O[C@@]2(C)Oc3c(C)c(O)c4c(O)c(c5c(nc6cc(C)ccn65)c4c3C2=O)NC(=O)/C(C)=C\C=C\[C@H](C)[C@H](O)[C@@H](C)[C@@H](O)[C@@H](C)[C@H](OC(C)=O)[C@@H]1C` has a viability of 11%.
`CC1(C)O[C@H]2CC(=O)OC[C@]23[C@H]2CC[C@@]4(C)[C@H](c5ccoc5)OC(=O)[C@H]5O[C@]54[C@]2(C)C(=O)C[C@@H]13` gave a viability of 119%.

Study 4
Structure (SMILES): O=C(NCc1ncc(C(F)(F)F)cc1Cl)c1ccc2c(c1)C1(CCS(=O)(=O)CC1)[C@H](C1CC1)N2S(=O)(=O)c1ccc(F)cc1
Effect on: cell-free assay
Technique: competition with immobilised ligand
Tested at: 1 µM
For DDR1 (Homo sapiens, UniProt Q08345): remaining binding read 100%.
The remaining binding was 83% (DCLK1 (Homo sapiens, UniProt O15075)).
For NEK7 (Homo sapiens, UniProt Q8TDX7): remaining binding read 100%.
It gave 91% for remaining binding (MAP4K4 (Homo sapiens, UniProt O95819)).
It gave 82% for remaining binding (LRRK2 (Homo sapiens, UniProt Q5S007)).
The remaining binding was 87% (MAPK6 (Homo sapiens, UniProt Q16659)).
The remaining binding was 100% (TGFBR2 (Homo sapiens, UniProt P37173)).
The remaining binding was 80% (EPHB6 (Homo sapiens, UniProt O15197)).
It gave 84% for remaining binding (CAMK1 (Homo sapiens, UniProt Q14012)).
The remaining binding was 88% (TNK1 (Homo sapiens, UniProt Q13470)).
For AXL (Homo sapiens, UniProt P30530): remaining binding read 100%.
The remaining binding was 95% (Receptor-type tyrosine-protein kinase FLT3, autoinhibited (FLT3, Homo sapiens, UniProt P36888)).
TNNI3K (Homo sapiens, UniProt Q59H18) — remaining binding: 100%.

Repeated from above (study 2):
`Cn1cc(/C=C2\C(=O)Nc3ccc(S(N)(=O)=O)cc32)c2ccccc21` gave a remaining activity of 97.3%.
The remaining activity of `COc1ccc(Cl)cc1NC(=O)Nc1cc(C)nc2ccccc12` is reported as 103%.
`C[S+]([O-])c1ccc(-c2nc(-c3ccncc3)c(-c3ccc(F)cc3)[nH]2)cc1` (centres unmarked) gave a remaining activity of 99.9%.
